Measurements gathered from unrelated publications.
Each line is one published result; not all experiments were run side by side. Values joined by “and” are separate records of one study, mostly repeats; a detail may differ.
UCHL1: Ubiquitin carboxyl-terminal hydrolase isozyme L1 (UCHL1, Homo sapiens, UniProt P09936)
UniProt P09936, sequence (whole entry, looked up): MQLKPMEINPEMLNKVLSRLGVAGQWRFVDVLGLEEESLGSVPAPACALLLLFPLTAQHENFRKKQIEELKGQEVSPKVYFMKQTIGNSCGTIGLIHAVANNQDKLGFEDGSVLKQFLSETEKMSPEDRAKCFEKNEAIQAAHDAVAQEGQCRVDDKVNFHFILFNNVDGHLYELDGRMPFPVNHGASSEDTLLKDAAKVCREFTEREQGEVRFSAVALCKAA

The EC50 of CC1(C)CCC(c2ccc(Cl)cc2)=C(CN2CCN(c3ccc(C(=O)NS(=O)(=O)c4ccc(N[C@H](CCN5CCOCC5)CSc5ccccc5)c(S(=O)(=O)C(F)(F)F)c4)cc3)CC2)C1 is reported as 31 nM (cell killing; primary canine neoplastic T cells, dog 19; 24 h).
With CN(C)C(=O)Oc1cccc([N+](C)(C)C)c1 the train-of-four ratio was 4.94 (neuromuscular block reversal; rat; dose not given, 3 (unit not given), together with: cisatracurium; baseline: T1 twitch).
CN(C)C(=O)c1cc2cnc(Nc3ccc(N4CCNCC4)cn3)nc2n1C1CCCC1 — result for “GSEA enrichment score”: -0.355 (RNA sequencing, refers to: HALLMARK_KRAS_SIGNALING_DN; MB002 tumour; concentration not given; baseline: vehicle, direction not given).
c1ccc(-c2n[nH]cc2-c2ccnc3ccccc23)nc1 — result for “log2 fold change”: 1.67 (kinase binding, competitor, MIB/MS competition, refers to: RCK2; Candida albicans cell lysate; 1 µM; baseline: DMSO).
The inhibition of Cc1cnc(N2CC3(CCOCC3)C2)c(C(=O)Nc2ccc(C(=O)N3CCc4cc(C(=O)Nc5c(C)cccc5F)sc4-c4ccccc43)cc2)c1 is reported as -9% (refers to: dsDNA; human RSV infection, nasal wash; dose not given, AUC, ITT-IS population; baseline: placebo).
C[C@H](Oc1ccc(Br)cc1-c1ccon1)C(=O)O has a CMAP amplitude of 0.199 mV (human, tibialis anterior muscle; 1200 mg single dose, 3.5 h post-dose).
CC(C)c1c(C(=O)Nc2ccccc2)c(-c2ccccc2)c(-c2ccc(F)cc2)n1CC[C@@H](O)C[C@@H](O)CC(=O)O — result for “serum lipid change”: “no effect” (refers to: triglycerides, HDL-C, LDL-C, total cholesterol; cynomolgus monkeys; dose not given, day 86, compound given alone).
With CN[C@@H]1COc2c(S(=O)(=O)NC(=O)Nc3c4c(cc5c3CCC5)CCC4)cnn2C1 the inhibition was 99.6% (refers to: IL-18; human participants, whole blood ex vivo; 900 mg twice daily, multiple doses, 1 h, IL-18, circulating, adjusted for, together with: LPS/ATP; baseline: baseline).
O=C(O)CNC(=O)Cc1ccccc1 gave a sarcomere length of 1.68 µm (ventricular cardiomyocytes, C57BL/6 mouse; dose not given, 0.14 s).
Under “pathway activation z-score”, Cn1cc(Nc2nccc(-c3ccc4c(c3)CN(C3COC3)CC[C@H]4NC(=O)c3cn(C(C)(C)C)nn3)n2)cn1 is recorded as 2 (refers to: Endocannabinoid Developing Neuron Pathway; splenic B cells, Mus musculus; 30 mg/kg, together with: IgD activation; baseline: vehicle, direction not given).
CCCCCN1C[C@H](O)[C@@H](O)[C@H](O)[C@@H]1CO — result for “number of significantly changed genes”: 0 genes (mRNA sequencing; mouse Hexb-/-, hippocampus; 300 mg/kg/day; baseline: untreated Hexb-/- mice).
NC(=O)c1cnc2[nH]ccc2c1N[C@@H]1[C@@H]2CC3C[C@H]1C[C@@](O)(C3)C2 — result for “CD8+ effector memory change”: 0.32% (flow cytometry; Japanese healthy men, blood; oral, 30 mg twice daily, 72 h after day 7 dose; baseline: baseline).
Cc1n[nH]c2ccc(-c3cc(OC[C@@H](N)Cc4ccccc4)cnc3-c3ccoc3)cc12 — result for “log2 fold change”: -2.41 (kinase binding, competitor, MIB/MS competition, refers to: TPK2; Candida albicans cell lysate; 10 µM; baseline: DMSO).
COc1ccccc1[C@H](Cn1c(=O)n(C(C)(C)C(=O)O)c(=O)c2c(C)c(-c3ncco3)sc21)OC1CCOCC1: “fractional hepatic DNL” 6.89 % new palmitate ([1-13C]acetate infusion, isotopomer analysis; overweight or obese healthy men, plasma VLDL-TG palmitate; oral, 20 mg single dose, -1 h relative to dose, fasted baseline).
For COc1ccc(-c2cncc(N[C@@H](C)c3cccc(NC(=O)c4cncc(C)c4)c3)n2)cc1OC, “delta delta Ct” read -0.11 (refers to: rno-miR-186-5p; rat SU5416/hypoxia model, lung; dose not given, unit not given; baseline: SU5416/hypoxia vehicle).
For N#Cc1ccc2c(c1)[C@H]1CCCN(C(=O)c3ccc4[nH]cnc4c3)[C@H]1C2, the HOMA-IR change was 1 mmol/L × mU/L (human, Phase II trial; 80 mg once daily, day 28, adjusted mean; baseline: baseline).
For N#Cc1ccc2c(-c3ccncc3)c(-c3ccc(F)cc3)nn2c1, “log2 fold change” read -0.169 (kinase binding, competitor, MIB/MS competition, refers to: PBS2; Candida albicans cell lysate; 10 µM; baseline: DMSO).
For C[C@H]1C[C@H]2CSC(N)=N[C@@]2(c2nc(NC(=O)c3ccc(OC(F)F)cn3)cs2)CO1, “percent change from baseline” read -45.2% (refers to: Aβ1-40; healthy adults, plasma; 5 mg once daily, day 2; baseline: placebo).
C[C@]12CC[C@@H]3c4ccc(O)cc4CC[C@H]3[C@@H]1CC[C@@H]2O gave a mRNA level of 0.0127 (RT-qPCR, refers to: CO; Arabidopsis thaliana ING1:FLAG seedlings; dose not given, 6 h (ZT12), unit not given; baseline: TUB2).
For N#Cc1ccn2c(-c3ccncc3)c(-c3ccc(F)cc3)nc2c1, “log2 fold change” read -0.186 (kinase binding, competitor, MIB/MS competition, refers to: KIN2; Candida albicans cell lysate; 10 µM; baseline: DMSO).
With CN(c1ccc(C(=O)CCl)cc1)S(C)(=O)=O the labelling was 29.4% (UCHL1; covalent, intact protein LC-MS; 12.5 µM).
Under “EEG Beta3-power Pz-O2”, OC(CCN1CCCCC1)(c1ccccc1)C1CC2C=CC1C2 (stereo not shown) is recorded as 2 µV² (resting-state EEG; healthy elderly humans; oral, 2 mg, eyes open, LS mean).
With CC(C)NCC(O)c1ccc(O)c(O)c1 (stereo not shown) the sarcomere length was 1.49 µm (ventricular cardiomyocytes, C57BL/6 mouse; dose not given, 0.188 s).
Cc1c(NC(=O)c2cccnc2)c(=O)n(-c2ccccc2)n1C gave a necrotic area of 3.5% and 5.9% and 4.3% and 5.6% and 6.1% (histology; Dmd C3333Y mice, tibialis anterior; dose not given).
C=CC(=O)N1CCC(C(=O)Nc2ccc(CC)cc2)CC1 has a labelling of 10.3% (UCHL1; covalent, intact protein LC-MS; 12.5 µM).

Repeated from above:
For N#Cc1ccc2c(c1)[C@H]1CCCN(C(=O)c3ccc4[nH]cnc4c3)[C@H]1C2, the HOMA-IR change was 1 mmol/L × mU/L (human, Phase II trial; 80 mg once daily, day 28, adjusted mean; baseline: baseline).
Under “EEG Beta3-power Pz-O2”, OC(CCN1CCCCC1)(c1ccccc1)C1CC2C=CC1C2 (stereo not shown) is recorded as 2 µV² (resting-state EEG; healthy elderly humans; oral, 2 mg, eyes open, LS mean).
